Measurements from different studies.
Compare with care: the assays were run in different laboratories. Numbers after ± are the reported error.

`O=c1[nH]c(=O)c(Cc2cccc(C(F)(F)F)c2)c([C@H]2CC[C@H](c3ccccc3)CC2)[nH]1` gave a Cmax of 740 ng/mL (human, plasma; oral, 900 mg once daily, day 7, geometric mean).
`CC1=C2C[C@H]3[C@@H](CC[C@@H]4C[C@H](NS(C)(=O)=O)CC[C@@]43C)[C@@H]2CC[C@@]2(C1)O[C@@H]1C[C@H](C)CN[C@H]1[C@H]2C` gave a Cmax of 6.66 ng/mL (patients, plasma; oral, 20 mg single, day -7, cycle 1).
With `CS(=O)(=O)Nc1ccc(C(=O)O[C@@H](Cc2c(Cl)c[n+]([O-])cc2Cl)c2ccc(OC(F)F)c(OCC3CC3)c2)cc1OCC1CC1` the Cmax was 0.628 ng/mL (human, plasma; inhaled, 1200 µg once daily, day 1, single-dose dry powder inhaler).
The Cmax of `COc1cccc(-c2n[nH]c(SCc3ccccn3)n2)c1OC` is reported as 10400 ng/mL (Sprague-Dawley rat, both sexes, plasma; oral, diet, 100 mg/kg/day, day 90).
`CCCOc1ccc([C@H]2CNC(=O)N2c2ccc3[nH]cnc3c2)cc1` has a Cmax of 2060 ng/mL (human, plasma; oral, 300 mg, multiple doses, twice daily, fasted).
The Cmax of `CCCC[C@H](NC(C)=O)C(=O)N[C@H]1CCC(=O)NC[C@@H](C(=O)N[C@@H](Cc2c[nH]c3ccccc23)C(N)=O)NC(=O)[C@H](CCCNC(=N)N)NC(=O)[C@@H](Cc2ccccc2)NC(=O)[C@H](Cc2c[nH]cn2)NC1=O` is reported as 525 ng/mL (CD Sprague-Dawley rat, male, plasma; subcutaneous, 1.0 mg/kg/day, day 1).
`Cn1c(C(F)(F)F)cc(=O)n(-c2cc(Oc3cccnc3OCC(=O)O)c(Cl)cc2F)c1=O` has a Cmax of 6760 ng/mL (beagle dog, male, plasma; oral capsule, 1000 mg/kg/day epyrifenacil, week 13, 90-day study).
For `CNCc1ccc(-c2[nH]c3cc(F)cc4c3c2CCNC4=O)cc1`, the Cmax was 175 ng/mL (human patients, plasma; oral, 80 mg once daily, day 15, steady state, arithmetic mean).
`CO[C@H]1C[C@@H]2CC[C@@H](C)[C@@](O)(O2)C(=O)C(=O)N2CCCC[C@H]2C(=O)O[C@H]([C@H](C)C[C@@H]2CC[C@@H](O)[C@H](OC)C2)CC(=O)[C@H](C)/C=C(\C)[C@@H](O)[C@@H](OC)C(=O)[C@H](C)C[C@H](C)/C=C/C=C/C=C/1C` gave a Cmax of 68.1 ng/mL (human, whole blood; oral, 35 mg, without grapefruit juice).
The Cmax of `CC(C)NC[C@@H](C(=O)N1CCN(c2ncnc3c2[C@H](C)C[C@H]3O)CC1)c1ccc(Cl)cc1` is reported as 48.9 ng/mL (human, matched normal hepatic function (Child-Pugh), plasma; oral, 100 mg single, reference geometric mean, vs Severe).
With `CNC(=O)c1ccc(-c2cnn3ccc(C(=O)N(CC(=O)O)c4ccc(Cl)cc4)cc23)cc1` the Cmax was 0.05 µM (female C57BL/6 mouse, plasma; oral, 10 mg/kg).
`CCCCCN1C[C@H](O)[C@@H](O)[C@H](O)[C@@H]1CO` has a Cmax of 311 ng/mL (male human, plasma; oral, 30 mg, single dose, fasted, healthy volunteers).
For `Cc1nc2cccc(OCC(C)(C)C(=O)NC(C)C)c2c(N)c1C(=O)O`, the Cmax was 7.47 ng/mL (female Sprague-Dawley rat, plasma; dietary, 30 mg/kg/day, day 7).
`O=C1N=C(N2CCOCC2)CN1c1ccc(Cl)cc1` gave a Cmax of 14900 ng/mL (beagle dog, both sexes, plasma; oral, 30 mg/kg twice daily, day 5, tablets, after 4 days dosing).
For `Cc1cc(Nc2cc3ncccc3c(N[C@@H]3C[C@H]4CC[C@@H](C3)N4CCC#N)n2)n[nH]1`, the Cmax was 8.11 ng/mL (beagle dog, male, plasma; oral, 10 mg/kg/day, last day of 4 weeks).
For `COc1cccc(CN)c1O`, the Cmax was 600000 ng/g (male C57BL/6 mouse, heart; intraperitoneal, 200 mg/kg, single dose).
With `O=C(CCCCCCC(=O)Nc1ccccc1)NO` the Cmax was 12.7 µM (patients, serum; oral, 1000 mg, cycle 1, with: flavopiridol).
With `CC(C)[C@H](N)C(=O)NCCCS(=O)(=O)O` the Cmax was 8150 ± 3610 ng/mL (human, both sexes, plasma; oral, 300 mg capsule).

For quick reference, copied from above:
`O=c1[nH]c(=O)c(Cc2cccc(C(F)(F)F)c2)c([C@H]2CC[C@H](c3ccccc3)CC2)[nH]1` gave a Cmax of 740 ng/mL (human, plasma; oral, 900 mg once daily, day 7, geometric mean).
